Measurements collected from several papers.
Protocols differ between the studies behind these lines. Numbers after ± are the reported error.
4'-phosphopantetheinyl transferase PptT: 4'-phosphopantetheinyl transferase PptT (Mycobacterium tuberculosis, UniProt O33336)
UniProt P21554, sequence (whole entry, unmodified, looked up): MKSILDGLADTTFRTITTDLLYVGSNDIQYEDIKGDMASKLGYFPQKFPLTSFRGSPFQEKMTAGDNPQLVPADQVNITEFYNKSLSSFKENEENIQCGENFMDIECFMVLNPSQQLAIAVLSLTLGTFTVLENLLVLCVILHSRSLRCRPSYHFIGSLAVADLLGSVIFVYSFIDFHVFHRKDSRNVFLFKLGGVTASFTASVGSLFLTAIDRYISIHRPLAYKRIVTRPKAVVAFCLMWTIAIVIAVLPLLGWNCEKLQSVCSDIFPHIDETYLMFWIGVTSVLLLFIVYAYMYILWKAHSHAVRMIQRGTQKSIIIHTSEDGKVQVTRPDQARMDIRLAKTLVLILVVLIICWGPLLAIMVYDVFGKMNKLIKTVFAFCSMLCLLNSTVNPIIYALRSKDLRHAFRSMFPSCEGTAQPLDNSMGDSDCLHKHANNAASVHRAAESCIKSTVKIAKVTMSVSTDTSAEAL
UniProt O33336, sequence (whole entry, looked up): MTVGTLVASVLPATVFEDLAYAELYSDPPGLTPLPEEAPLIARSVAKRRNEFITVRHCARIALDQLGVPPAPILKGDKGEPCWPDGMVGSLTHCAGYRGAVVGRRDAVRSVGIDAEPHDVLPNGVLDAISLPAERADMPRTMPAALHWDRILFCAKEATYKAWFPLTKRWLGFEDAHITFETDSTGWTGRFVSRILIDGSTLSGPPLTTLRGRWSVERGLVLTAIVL
UniProt Q9H3N8, sequence (whole entry, looked up): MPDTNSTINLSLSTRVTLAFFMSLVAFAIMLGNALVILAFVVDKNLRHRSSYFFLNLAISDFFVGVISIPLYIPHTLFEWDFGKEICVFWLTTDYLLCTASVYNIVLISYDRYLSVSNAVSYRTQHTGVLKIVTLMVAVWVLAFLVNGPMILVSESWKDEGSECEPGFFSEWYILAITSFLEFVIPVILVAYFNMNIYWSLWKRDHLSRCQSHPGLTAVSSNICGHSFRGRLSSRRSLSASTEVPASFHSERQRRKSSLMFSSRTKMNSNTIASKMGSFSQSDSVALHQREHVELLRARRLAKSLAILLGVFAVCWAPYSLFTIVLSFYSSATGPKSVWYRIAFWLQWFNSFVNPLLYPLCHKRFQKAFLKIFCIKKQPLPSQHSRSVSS
UniProt P41143, sequence (whole entry, unmodified, looked up): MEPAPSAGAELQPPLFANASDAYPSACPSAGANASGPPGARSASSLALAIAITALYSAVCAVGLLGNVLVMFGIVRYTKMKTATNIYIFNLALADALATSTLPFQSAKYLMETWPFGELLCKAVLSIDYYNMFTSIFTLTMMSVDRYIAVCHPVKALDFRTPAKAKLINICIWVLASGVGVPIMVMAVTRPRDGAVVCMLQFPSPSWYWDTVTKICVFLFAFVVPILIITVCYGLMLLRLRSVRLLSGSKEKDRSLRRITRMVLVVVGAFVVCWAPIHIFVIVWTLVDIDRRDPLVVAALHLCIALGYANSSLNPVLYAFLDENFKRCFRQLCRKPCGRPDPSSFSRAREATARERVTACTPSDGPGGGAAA
UniProt O60911, sequence (whole entry, looked up): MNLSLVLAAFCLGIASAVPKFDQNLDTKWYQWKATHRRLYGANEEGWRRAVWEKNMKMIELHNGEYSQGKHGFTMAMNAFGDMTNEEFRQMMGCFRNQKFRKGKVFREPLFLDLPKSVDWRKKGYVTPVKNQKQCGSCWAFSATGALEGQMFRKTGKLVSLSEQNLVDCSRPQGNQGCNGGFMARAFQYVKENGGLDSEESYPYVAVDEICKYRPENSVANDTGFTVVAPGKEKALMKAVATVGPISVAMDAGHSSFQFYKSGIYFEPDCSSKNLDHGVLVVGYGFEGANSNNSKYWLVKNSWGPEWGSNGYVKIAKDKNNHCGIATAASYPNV
UniProt P41586, sequence (whole entry, looked up): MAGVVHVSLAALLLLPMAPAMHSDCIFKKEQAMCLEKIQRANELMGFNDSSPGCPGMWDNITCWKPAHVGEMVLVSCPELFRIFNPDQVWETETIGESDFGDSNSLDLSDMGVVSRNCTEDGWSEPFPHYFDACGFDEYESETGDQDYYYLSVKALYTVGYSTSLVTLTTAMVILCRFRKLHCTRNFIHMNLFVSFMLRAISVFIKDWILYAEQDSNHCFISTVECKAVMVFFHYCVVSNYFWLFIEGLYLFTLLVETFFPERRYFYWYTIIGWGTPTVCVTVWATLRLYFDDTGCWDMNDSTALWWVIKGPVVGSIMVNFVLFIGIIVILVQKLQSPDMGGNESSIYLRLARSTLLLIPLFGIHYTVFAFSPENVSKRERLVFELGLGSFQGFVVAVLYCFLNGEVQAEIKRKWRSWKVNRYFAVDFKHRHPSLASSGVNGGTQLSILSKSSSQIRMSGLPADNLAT

`CC(C)CC(C(=O)N1CC2(CC1C#N)C(=O)Nc1ccccc12)N(C)C(=O)c1cc2c(F)cc(F)c(F)c2[nH]1` (stereo not drawn) gave an IC50 of greater than 100000 nM (Cathepsin L2 (CTSV, Homo sapiens, UniProt O60911); enzyme activity, inhibitor).
Under “organ-to-brain weight ratio”, `O=C1NC2(CC2)COc2ncc(F)cc2[C@H]2COCCN2c2ccn3ncc1c3n2` is recorded as 52.8 ± 4.58% (Sprague-Dawley rat, male, spleen; oral, 5 mg/kg/day, 4 weeks dosing, end of recovery).
The Ki of `CCN(CC)C(=O)[C@@H]1C=C2c3cccc4c3c(cn4C(=O)c3ccco3)C[C@H]2N(C)C1` is reported as greater than 10000 nM (HRH4 (Homo sapiens, UniProt Q9H3N8); ligand displacement, radioligand).
`CCN(CC)C(=O)c1ccc(C(c2cccc(O)c2)N2CC(C)N(Cc3ccccc3)CC2C)cc1` (stereo not drawn) gave a Ki of 1.04 ± 0.27 nM (OPRD1 (Homo sapiens, UniProt P41143, Y129F)).
With `C#CCN(Cc1ccc2nc(C)[nH]c(=O)c2c1)c1ccc(C(=O)NC(CCC(=O)O)C(=O)O)s1` (stereo not drawn) the IC50 was 49 nM (4'-phosphopantetheinyl transferase PptT; enzyme activity, inhibitor, FP).
`CC(C)(C)C(=O)OCOP(=O)(OCOC(=O)C(C)(C)C)C1CCCN(O)C1=O` (stereo not drawn) gave a GI50 of 324 nM (SK-MEL-5).
With `COc1ccccc1C(C[N+](=O)[O-])c1c(-c2ccccc2)[nH]c2ccccc12` (stereo not drawn) the EC50 was 1140 nM (CNR1 (Homo sapiens, UniProt P21554, F191A); G protein activation, agonist, BRET).
`CSCC[C@H](NC(=O)[C@H](CCC(N)=O)NC(=O)[C@H](CCCCN)NC(=O)[C@H](CCCNC(=N)N)NC(=O)[C@H](Cc1ccc(O)cc1)NC(=O)[C@H](CCCNC(=N)N)NC(=O)[C@H](CO)NC(=O)[C@H](Cc1ccc(O)cc1)NC(=O)[C@H](CO)NC(=O)[C@H](CC(=O)O)NC(=O)[C@@H](NC(=O)[C@@H](N)Cc1ccccc1)[C@@H](C)O)C(=O)N[C@@H](C)C(=O)N[C@H](C(=O)N[C@@H](CCCCN)C(=O)N[C@@H](CCCCn1cc(C[C@H](NC(=O)CNC(=O)[C@H](CO)NC(=O)[C@H](CCCNC(=N)N)NC(=O)[C@H](CO)NC(=O)[C@H](CC(C)C)NC(=O)[C@H](CC(C)C)NC(=O)CNC(=O)[C@H](C)NC(=O)[C@H](CC(C)C)NC(=O)[C@H](CCCNC(=N)N)NC(=O)[C@H](Cc2c[nH]cn2)NC(=O)[C@@H](NC(=O)[C@@H](N)C(C)C)[C@@H](C)O)C(=O)N[C@H](C(=O)N[C@H](C(=O)N[C@@H](CCCCN)C(=O)N[C@@H](CC(N)=O)C(=O)N[C@@H](CC(N)=O)C(=O)N[C@@H](Cc2ccccc2)C(=O)N[C@H](C(=O)N2CCC[C@H]2C(=O)N[C@H](C(=O)N[C@@H](CC(N)=O)C(=O)N[C@H](C(=O)NCC(=O)N[C@@H](CO)C(=O)N[C@@H](CCCCN)C(=O)N[C@@H](C)C(=O)N[C@@H](Cc2ccccc2)C(N)=O)C(C)C)[C@@H](C)O)C(C)C)C(C)C)C(C)C)nn1)C(=O)N[C@@H](Cc1ccc(O)cc1)C(=O)N[C@@H](CC(C)C)C(=O)N[C@@H](C)C(=O)N[C@@H](C)C(=O)N[C@H](C(=O)N[C@@H](CC(C)C)C(=O)NCC(=O)N[C@@H](CCCCN)C(=O)N[C@@H](CCCNC(=N)N)C(=O)N[C@@H](Cc1ccc(O)cc1)C(=O)N[C@@H](CCCCN)C(=O)N[C@@H](CCC(N)=O)C(=O)N[C@@H](CCCNC(=N)N)C(=O)N[C@H](C(=O)N[C@@H](CCCCN)C(=O)N[C@@H](CC(N)=O)C(=O)N[C@@H](CCCCN)C(N)=O)C(C)C)C(C)C)C(C)C` has a Kb of 30.2 nM (ADCYAP1R1 (Homo sapiens, UniProt P41586); cAMP accumulation, antagonist; COS-7 transfected; with: VIP).
`C#CCN(Cc1ccc2nc(CC)[nH]c(=O)c2c1)c1ccc(C(=O)NC(CCC(=O)O)C(=O)O)cc1` (stereo not drawn) has an IC50 of 53 nM (4'-phosphopantetheinyl transferase PptT; enzyme activity, inhibitor, FP).
`CCCCCn1cc(C(=O)c2cccc3c2CC(C)(C)C3)c2ccccc21` has an EC50 of 27.5 nM (CNR1 (Homo sapiens, UniProt P21554); Gαi1 activation, agonist, BRET).
For `Cc1ccc2c(C(C[N+](=O)[O-])c3cccs3)c(-c3ccccc3)[nH]c2c1` (stereo not drawn), the EC50 was 50 ± 10 nM (Cannabinoid receptor 1, with Gz (CNR1, Homo sapiens, UniProt P21554); Gz dissociation, agonist, BRET; HEK293).
`COc1ccccc1-c1n[nH]c2nc(NC3CCN(C(=O)Cc4ccc(F)cc4F)CC3)ncc12` has a relative abundance of 1.05 (bead binding, competition bead pull-down, item: LINJ.30.3230; Leishmania donovani axenic amastigote extract; 10 µM; baseline: vehicle).
